Results from different studies.
Protocols differ between the studies behind these lines. Numbers after ± are the reported error.
T1: riboswitch RNA yjdF aptamer, L4 replaced by GAAA (Bacillus subtilis); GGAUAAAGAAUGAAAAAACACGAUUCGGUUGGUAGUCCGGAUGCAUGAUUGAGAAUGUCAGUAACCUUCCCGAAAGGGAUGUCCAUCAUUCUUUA
Sequence of UniProt Q64663 (whole entry, unmodified, looked up): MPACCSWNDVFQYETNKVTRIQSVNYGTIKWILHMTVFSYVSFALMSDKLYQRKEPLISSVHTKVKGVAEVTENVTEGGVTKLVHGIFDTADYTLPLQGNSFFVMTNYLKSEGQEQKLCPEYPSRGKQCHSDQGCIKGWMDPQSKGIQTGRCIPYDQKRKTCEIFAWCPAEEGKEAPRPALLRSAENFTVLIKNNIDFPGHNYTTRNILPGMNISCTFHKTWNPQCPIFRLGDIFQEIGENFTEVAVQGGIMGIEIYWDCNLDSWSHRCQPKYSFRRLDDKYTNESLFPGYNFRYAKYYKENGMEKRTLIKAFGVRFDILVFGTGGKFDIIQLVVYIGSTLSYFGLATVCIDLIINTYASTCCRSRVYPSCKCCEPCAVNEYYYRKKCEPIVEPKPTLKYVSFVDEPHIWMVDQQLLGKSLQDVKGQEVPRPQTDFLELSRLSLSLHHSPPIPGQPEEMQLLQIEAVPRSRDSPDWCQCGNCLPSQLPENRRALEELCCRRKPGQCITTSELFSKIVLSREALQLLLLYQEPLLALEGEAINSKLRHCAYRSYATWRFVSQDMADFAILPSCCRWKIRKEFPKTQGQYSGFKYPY
Sequence of UniProt Q96D96 (whole entry, unmodified, looked up): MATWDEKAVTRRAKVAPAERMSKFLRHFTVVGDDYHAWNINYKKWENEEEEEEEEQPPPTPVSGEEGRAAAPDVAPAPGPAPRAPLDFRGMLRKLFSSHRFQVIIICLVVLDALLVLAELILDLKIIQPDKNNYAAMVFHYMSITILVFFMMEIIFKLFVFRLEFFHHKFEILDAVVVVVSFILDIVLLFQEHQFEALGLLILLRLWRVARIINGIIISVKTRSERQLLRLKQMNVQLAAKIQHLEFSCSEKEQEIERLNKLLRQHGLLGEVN
Sequence of UniProt P31749 (whole entry, looked up): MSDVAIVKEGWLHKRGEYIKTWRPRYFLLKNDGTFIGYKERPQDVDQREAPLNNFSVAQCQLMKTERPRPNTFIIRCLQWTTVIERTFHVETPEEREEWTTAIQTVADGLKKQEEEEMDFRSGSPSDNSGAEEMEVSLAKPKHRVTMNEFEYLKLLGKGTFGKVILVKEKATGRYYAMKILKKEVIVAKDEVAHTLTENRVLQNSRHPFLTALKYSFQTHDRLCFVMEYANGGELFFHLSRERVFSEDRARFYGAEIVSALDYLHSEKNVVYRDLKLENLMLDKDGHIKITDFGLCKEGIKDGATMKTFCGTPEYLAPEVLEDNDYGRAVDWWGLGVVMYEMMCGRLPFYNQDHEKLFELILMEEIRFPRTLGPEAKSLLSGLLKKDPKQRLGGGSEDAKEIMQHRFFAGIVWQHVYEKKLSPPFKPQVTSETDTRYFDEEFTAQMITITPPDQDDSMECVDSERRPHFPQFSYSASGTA
Sequence of UniProt P42338 (whole entry, looked up): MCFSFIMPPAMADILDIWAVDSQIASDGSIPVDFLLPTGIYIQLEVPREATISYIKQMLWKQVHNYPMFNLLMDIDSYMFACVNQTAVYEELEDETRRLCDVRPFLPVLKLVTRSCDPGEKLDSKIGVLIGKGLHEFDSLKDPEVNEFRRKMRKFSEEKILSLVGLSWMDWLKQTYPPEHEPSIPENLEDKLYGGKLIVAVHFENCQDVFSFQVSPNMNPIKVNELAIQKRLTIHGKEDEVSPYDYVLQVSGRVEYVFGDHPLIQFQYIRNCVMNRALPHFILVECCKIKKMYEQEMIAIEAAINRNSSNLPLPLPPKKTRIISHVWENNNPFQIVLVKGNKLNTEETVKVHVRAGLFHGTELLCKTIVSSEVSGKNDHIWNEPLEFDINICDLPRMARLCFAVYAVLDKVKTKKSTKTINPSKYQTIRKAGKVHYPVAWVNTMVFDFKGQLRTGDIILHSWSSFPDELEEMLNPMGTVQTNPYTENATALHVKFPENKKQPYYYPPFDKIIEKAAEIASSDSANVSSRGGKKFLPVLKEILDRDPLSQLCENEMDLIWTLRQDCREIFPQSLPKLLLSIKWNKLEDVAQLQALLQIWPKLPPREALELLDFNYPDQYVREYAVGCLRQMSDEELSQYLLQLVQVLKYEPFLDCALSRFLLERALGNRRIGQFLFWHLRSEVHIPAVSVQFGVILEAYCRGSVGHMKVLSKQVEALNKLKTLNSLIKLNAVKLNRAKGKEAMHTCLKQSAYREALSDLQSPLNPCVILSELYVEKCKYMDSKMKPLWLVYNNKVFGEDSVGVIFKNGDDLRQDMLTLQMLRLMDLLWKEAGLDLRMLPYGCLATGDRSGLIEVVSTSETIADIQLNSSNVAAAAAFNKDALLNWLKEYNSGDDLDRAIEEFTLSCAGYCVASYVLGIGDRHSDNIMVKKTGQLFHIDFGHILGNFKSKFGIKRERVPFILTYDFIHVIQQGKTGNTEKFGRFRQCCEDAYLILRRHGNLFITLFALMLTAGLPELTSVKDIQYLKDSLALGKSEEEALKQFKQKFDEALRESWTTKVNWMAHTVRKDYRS

SMILES | target or system | assay | test system | conditions | how to read | measurement | result
C[C@@H](O)[C@H]1C(=O)N2C(C(=O)O)=C(S[C@@H]3CN[C@H](CNS(N)(=O)=O)C3)[C@H](C)[C@H]12 | beta-lactamase RAD-1 (Riemerella anatipestifer) | substrate, continuous spectrophotometric hydrolysis |  | 30 °C |  | Km | 15 ± 1.8 µM
O=C(COP(=O)(O)O)[C@@H](O)[C@H](O)[C@H](O)COP(=O)(O)O | Importin subunit alpha-1 (Homo sapiens, UniProt P52292) | thermal proteome profiling, refers to: KPNA2 | HepG2 cell lysate | concentration not given, 57 over 37 °C, mean | relative to: compound over control | thermal stability ratio | 0.636
O=C(NCCN1CCCC1=O)c1ccc([C@H]2[C@@H](F)[C@@H](F)C[C@@H](F)[C@H]2F)cc1 |  | hepatocyte stability | cryopreserved human hepatocytes | 1 µM |  | hepatic clearance | 6.2 mL/min/kg
COc1cc(-c2cncc3c2CN(C)Cc2cc(N4CCNCC4)ccc2-3)cc(OC)c1OC | RAC-alpha serine/threonine-protein kinase (AKT1, Homo sapiens, UniProt P31749) | kinase activity |  | 1 µM, human enzyme, together with: ATP 10 µM | relative to: DMSO control | remaining activity | 92%
COCCN(C)C(=O)c1ccc(C2CCCCC2)cc1 |  | hepatocyte stability | cryopreserved human hepatocytes | 1 µM |  | hepatic clearance | 17 mL/min/kg
Nc1ncnc2c1ncn2[C@@H]1O[C@H](COP(=O)(O)OP(=O)(O)OP(=O)(O)O)[C@@H](O)[C@H]1O | P2X purinoceptor 7 (P2rx7, Rattus norvegicus, UniProt Q64663, Q143A) | ion current, agonist, two-electrode voltage clamp | Xenopus laevis oocytes | 2 µM | relative to: highest concentration response | normalized current | 0
Cn1cc(-c2ccc(-c3cncc(Cl)c3N3CCC4(CCNC4=O)CC3)cc2)cn1 | COLO 205 | gene expression, microarray, refers to: SQSTM1 mRNA |  | concentration not given, 2 h | relative to: untreated cells | log2 fold change | 2.44
CC(C)C[C@H](NC(=O)C[C@H](O)[C@H](CC(C)C)NC(=O)[C@H](Cc1c[nH]cn1)NC(=O)CNC(=O)[C@@H](NC(=O)[C@H](C)NC(=O)[C@H](Cc1c[nH]c2ccccc12)NC(=O)[C@H](CCC(N)=O)NC(=O)[C@@H](Cc1ccccc1)NC(=O)COCCOCCNC(=O)CCC(C(=O)O)N1CCN(CC(=O)O)CCN(CC(=O)O)CCN(CC(=O)O)CC1)C(C)C)C(N)=O (some centres unmarked) [lutetium-177 labelled] |  |  | BALB/c nu/nu mice, female, spleen | intravenous, 100 pmol, 30 min, time course 0.5 h, together with: PA 300 µg |  | tissue uptake | 0.8 ± 0.3 %ID/g
CC[C@H](C)[C@H](NC(=O)[C@H](Cc1ccccc1)NC(=O)[C@H](CCC(=O)O)NC(=O)[C@H](CCCNC(=N)N)NC(=O)[C@H](C)NC(=O)[C@H](C)NC(=O)[C@H](CCC(N)=O)NC(=O)[C@H](CCCCNc1c(NCCCCCN(O)C(=O)CCC(=O)NCCCCCN(O)C(=O)CCC(=O)NCCCCCN(O)C(C)=O)c(=O)c1=O)NC(=O)[C@H](CCC(=O)O)NC(=O)[C@H](CC(C)C)NC(=O)[C@H](Cc1ccc(O)cc1)NC(=O)[C@H](CO)NC(=O)[C@H](CO)NC(=O)[C@@H](NC(=O)[C@H](CC(=O)O)NC(=O)[C@H](CO)NC(=O)[C@@H](NC(=O)[C@H](Cc1ccccc1)NC(=O)[C@@H](NC(=O)CNC(=O)[C@H](CCC(=O)O)NC(=O)[C@H](C)NC(=O)CCc1cnc[nH]1)[C@@H](C)O)[C@@H](C)O)C(C)C)C(=O)N[C@@H](C)C(=O)N[C@@H](Cc1c[nH]c2ccccc12)C(=O)N[C@@H](CC(C)C)C(=O)N[C@H](C(=O)N[C@@H](CCCNC(=N)N)C(=O)NCC(=O)N[C@@H](CCCNC(=N)N)C(=O)N[C@@H](CCCCNC(=O)COCCOCCNC(=O)COCCOCCNC(=O)CC[C@H](NC(=O)CCCCCCCCCCCCCCCCC(=O)O)C(=O)O)C(=O)NCC(=O)NCC(=O)N[C@@H](CO)C(=O)N[C@@H](CCCCNc1c(NCCCCCN(O)C(=O)CCC(=O)NCCCCCN(O)C(=O)CCC(=O)NCCCCCN(O)C(C)=O)c(=O)c1=O)C(=O)O)C(C)C | Glucagon-like peptide 1 receptor (GLP1R, Homo sapiens, UniProt P43220) | agonist, CRE luciferase reporter | BHK cells | metal-free DFO conjugate, together with: 0% HSA | relative to: parent peptide | fold potency loss | 10
CC[C@@H]1[C@H](F)C(=O)N[C@@H]1COc1nccc2cc(C(N)=O)c(OC)cc12 | Phosphatidylinositol 4,5-bisphosphate 3-kinase catalytic subunit beta isoform (PIK3CB, Homo sapiens, UniProt P42338) | ATP-site probe binding, ActivX profiling | THP-1 cell lysate | 0.2 mM |  | inhibition | -29.5%
N=C(N)Nc1nc2ccccc2[nH]1 | Voltage-gated hydrogen channel 1 (HVCN1, Homo sapiens, UniProt Q96D96, F149A/F150A) | proton current, inhibitor, inside-out patch clamp |  |  |  | Hill coefficient | 0.87 ± 0.09
Cc1cc2nc3[nH]c(=O)[nH]c(=O)c3nc2cc1C | T1, riboswitch RNA yjdF aptamer, L4 replaced by GAAA (Bacillus subtilis) | fluorescence titration |  | together with: 380 nM lumichrome |  | Kd | 30 nM
O=C(O)c1ccc(Nc2ncc3c(n2)-c2ccc(Cl)cc2C(c2c(F)cccc2F)=NC3)cc1 | ALK(h) | kinase activity |  | 1 µM |  | remaining activity | 95%
OO | alternative ancestral dye-decolorizing peroxidase | peroxidase activity, substrate, steady-state kinetics |  | 25 °C, pH 3 ABTS, 4 others |  | kcat | 3.6 s⁻¹
